Measured values pooled from the literature.
“And” joins repeats or separate records; there may be more than shown. Numbers after ± are the reported error.

CC[C@H](C)[C@H](NC(=O)[C@H](C)NC(=O)[C@H](CCCCN)NC(=O)[C@H](CCCCN)NC(=O)[C@@H](N)CCCNC(=N)N)C(=O)N[C@@H](CCCCN)C(=O)N[C@@H](CC(C)C)C(=O)N[C@H](C(=O)N[C@@H](CCCCN)C(=O)N[C@@H](CCCCN)C(=O)N[C@@H](CC(C)C)C(=O)N[C@H](C(=O)N[C@@H](CCCCN)C(=O)N[C@@H](CCCCN)C(=O)N[C@@H](CC(C)C)C(=O)N[C@@H](CCCCN)C(=O)N[C@@H](CCCCN)C(=O)N[C@@H](C)C(=O)N[C@@H](CC(C)C)C(=O)N[C@@H](CCCCN)C(=O)O)C(C)C)C(C)C  cell growth (HeLa; MTT; 8 mg/L; relative to: untreated): 95.4% and 90.9% and 92.5%
CCN(CCCCOc1ccc(CCC(=O)N2CCC(Cc3ccccc3)CC2)cc1OC)Cc1ccccc1  Papp(B-A) (Caco-2 monolayer; 20 µM, 120 min): 12.8 ± 1.82 ×10⁻⁶ cm/s
CC[C@H](C)[C@H](NC(=O)[C@@H](NC(=O)[C@H](CCCNC(=N)N)NC(=O)[C@H](CCCNC(=N)N)NC(=O)[C@@H](NC(=O)[C@H](Cc1c[nH]c2ccccc12)NC(=O)[C@H](CCCNC(=N)N)NC(=O)[C@@H](NC(=O)[C@H](CC(C)C)NC(=O)[C@H](CCCNC(=N)N)NC(=O)[C@H](CCCNC(=N)N)NC(=O)[C@@H](N)C(C)C)[C@@H](C)CC)[C@@H](C)CC)C(C)C)C(N)=O  minimum haemolytic concentration (sheep red blood cells; 10% haemolysis; 1 h, 37 °C): 85 µM
CC[C@H](C)[C@H](NC(=O)CNC(=O)[C@H](CC(C)C)NC(=O)[C@@H](NC(=O)CNC(=O)[C@H](CC(C)C)NC(=O)[C@H](CCC(N)=O)NC(=O)[C@@H](NC(=O)[C@H](CO)NC(=O)[C@H](C)NC(=O)[C@H](CCCCN)NC(=O)[C@H](CCCNC(=N)N)NC(=O)[C@H](CC(C)C)NC(=O)CNC(=O)[C@H](CCC(N)=O)NC(=O)[C@H](CC(C)C)NC(=O)[C@H](CC(C)C)NC(=O)[C@H](CCC(=O)O)NC(=O)CNC(=O)[C@H](CCCNC(=N)N)NC(=O)[C@@H](NC(=O)[C@H](CCCCN)NC(=O)[C@H](Cc1ccccc1)NC(=O)[C@H](CCCCN)NC(=O)[C@H](CCCCN)NC(=O)[C@H](CO)NC(=O)[C@H](CCCCN)NC(=O)[C@H](CC(C)C)NC(=O)[C@H](CC(C)C)NC(=O)[C@H](CCCCN)NC(=O)[C@H](CCCCN)NC(=O)[C@@H](NC(=O)[C@@H](NC(=O)[C@H](CCCCN)NC(=O)CNC(=O)[C@H](CC(C)C)NC(=O)[C@H](CCCCN)NC(=O)[C@H](C)N)[C@@H](C)O)[C@@H](C)CC)[C@@H](C)CC)C(C)C)[C@@H](C)O)C(=O)N[C@@H](CC(C)C)C(=O)O  IC50 (HUVEC; cytotoxicity, MTT; 24 h, 37 °C): 36.2 µM
CNC(=O)C[C@H](Cc1ccccc1)NC(=O)[C@@H](Cc1ccc(Cl)cc1Cl)NC(=O)[C@H](N)Cc1ccccc1C#N  viability (Huh-7-ACE2; CellTiter-Glo; 0.0488 µM, 48 h, unit not given; relative to: DMSO): 0.968 and 1.11 and 0.992
CC[C@H](C)[C@@H]1NC(=O)[C@H](C(C)C)NC(=O)[C@H](C(C)C)NC(=O)[C@H](CC(C)C)NC(=O)C[C@@H](C(=O)N[C@@H](Cc2c[nH]c3ccccc23)C(=O)N[C@@H](CC(N)=O)C(=O)N[C@@H](C)C(=O)N2CCC[C@H]2C(=O)NCC(=O)N[C@@H](Cc2c[nH]c3ccccc23)C(=O)N[C@@H](Cc2ccccc2)C(=O)O)NC(=O)[C@H](C)NC(=O)[C@H](CCC(N)=O)NC(=O)[C@H](C(C)C)NC1=O  cytotoxicity (MCF7; 10 µM): not toxic
COc1cc(/C=C/C(=O)Oc2cc(C(F)(F)F)cc(C(F)(F)F)c2)ccc1OC(C)=O  subcytotoxic concentration (HaCaT; MTT; 24 h, 10% FBS): 50 µM
O=c1n(CCNCCOS(=O)(=O)c2ccccc2)c(=O)n(S(=O)(=O)c2ccccc2)c(=O)n1S(=O)(=O)c1ccccc1  viability (HUVEC; cell growth or viability, MTT; 25 µg/mL, 24 h): 88.1%
CC[C@H](C)[C@H](NC(=O)[C@H](C)NC(=O)[C@H](CCCCN)NC(=O)[C@H](CC(C)C)NC(=O)[C@@H](N)Cc1ccccc1)C(=O)N[C@@H](CCCCN)C(=O)N[C@@H](CCCCN)C(=O)N[C@@H](Cc1ccccc1)C(=O)NCC(=O)N[C@@H](CCCCN)C(=O)N[C@@H](CCC(=O)O)C(=O)N[C@@H](Cc1ccccc1)C(=O)N[C@@H](CCCCN)C(=O)N[C@@H](CCCCN)C(=O)N[C@H](C(=O)NCC(=O)N[C@@H](C)C(=O)N[C@@H](CCCCN)C(=O)N[C@@H](CC(C)C)C(=O)N[C@@H](CCCCN)C(=O)O)[C@@H](C)CC  viability (HaCaT; cell growth or viability, MTT; 64 µg/mL): 85.3%
